Experimental data pooled from the literature.
A part holds a random share of what one study measured. Substitutions count along the parent as printed.
UniProt P53350, sequence (whole entry, looked up): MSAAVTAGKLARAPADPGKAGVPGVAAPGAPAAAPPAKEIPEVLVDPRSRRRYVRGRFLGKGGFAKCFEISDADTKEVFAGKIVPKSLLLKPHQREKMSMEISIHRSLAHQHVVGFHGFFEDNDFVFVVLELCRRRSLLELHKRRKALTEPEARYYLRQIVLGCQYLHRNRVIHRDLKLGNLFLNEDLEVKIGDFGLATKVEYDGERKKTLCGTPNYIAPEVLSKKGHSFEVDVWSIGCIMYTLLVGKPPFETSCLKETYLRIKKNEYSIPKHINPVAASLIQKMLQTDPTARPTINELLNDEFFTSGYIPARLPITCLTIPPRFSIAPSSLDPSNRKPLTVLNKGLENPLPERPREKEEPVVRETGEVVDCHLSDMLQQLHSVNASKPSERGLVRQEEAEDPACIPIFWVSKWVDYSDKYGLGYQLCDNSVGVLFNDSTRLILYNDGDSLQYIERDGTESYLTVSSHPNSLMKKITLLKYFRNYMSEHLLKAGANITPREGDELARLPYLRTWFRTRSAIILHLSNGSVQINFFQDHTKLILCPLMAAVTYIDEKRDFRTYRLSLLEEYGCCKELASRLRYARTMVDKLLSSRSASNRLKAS

Set 1 — technique: RNA Bind-n-Seq; form: RNA; matrix: in vitro; concentration: 20 nM; notes: 6-mer, flanks averaged, single round; together with: 150 mM LiCl; reference: input library; reading: higher = stronger binding; endpoint: 6-mer enrichment (R)
Target: TAR DNA-binding protein 43, full length, His tag (TARDBP, Homo sapiens, UniProt Q13148, residues 1-414)
Strand = GCCCAA; result = 0.953
Strand = AACUUA; result = 0.879
Strand = ACGUAC; result = 0.825
Strand = UGUCGC; result = 0.991
Strand = UUGCGA; result = 0.957
Strand = CGGACC; result = 0.929
Strand = CGUCAA; result = 0.863
Strand = AGGCCG; result = 0.957

Set 2 — effect on: enzyme activity; mode: inhibitor; concentration: 0.5 µM; reference: control; endpoint: remaining activity
Target: Serine/threonine-protein kinase 24 (STK24, Homo sapiens, UniProt Q9Y6E0)
UniProt Q9Y6E0, sequence (whole entry, looked up): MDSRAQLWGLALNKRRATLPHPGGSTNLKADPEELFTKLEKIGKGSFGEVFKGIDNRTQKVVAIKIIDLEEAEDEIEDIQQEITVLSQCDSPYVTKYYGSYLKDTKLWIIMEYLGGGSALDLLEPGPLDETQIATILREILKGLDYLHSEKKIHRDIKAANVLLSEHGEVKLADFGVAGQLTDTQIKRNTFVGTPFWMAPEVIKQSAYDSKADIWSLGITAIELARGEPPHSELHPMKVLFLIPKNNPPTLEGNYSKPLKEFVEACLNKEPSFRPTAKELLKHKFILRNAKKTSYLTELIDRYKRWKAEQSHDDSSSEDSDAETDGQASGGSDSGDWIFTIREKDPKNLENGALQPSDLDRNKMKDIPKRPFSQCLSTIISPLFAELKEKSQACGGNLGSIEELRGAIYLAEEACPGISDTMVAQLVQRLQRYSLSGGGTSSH
SMILES = O=c1c(-c2ccc(F)cc2)c(-c2ccncc2)[nH]n1-c1ccc(Cl)cc1; result = 111%
SMILES = CC(C)(C)c1nc2c3cc[nH]c(=O)c3c3cc(F)ccc3c2[nH]1; result = 82.4%
SMILES = N#CC(c1ccnc(NCCc2cccnc2)n1)c1nc2ccccc2s1 (stereo not shown); result = 95.6%
SMILES = Clc1ccc(Nc2nnc(Cc3ccncc3)c3ccccc23)cc1; result = 98.7%
SMILES = FC(F)(F)c1ccc(/C=C/c2nc(COc3ccc(CCCCn4ccnn4)cc3)co2)cc1; result = 101%
SMILES = CC(C)n1cnc2c(Nc3cccc(Cl)c3)nc(NCCO)nc21; result = 87.7%
SMILES = O=C1c2ccccc2-c2nc3nnnn3nc21; result = 101%
SMILES = c1cc(-c2cnn3cc(-c4ccc(OCCN5CCCCC5)cc4)cnc23)ccn1; result = 95.5%
SMILES = COc1cc2c(N3CCN(C(=O)Nc4ccc(OC(C)C)cc4)CC3)ncnc2cc1OCCCN1CCCCC1; result = 102%
SMILES = Nc1nc(Nc2ccc(S(N)(=O)=O)cc2)nn1C(=S)Nc1c(F)cccc1F; result = 2.88%
SMILES = C[C@@H](N)[C@H]1CC[C@H](C(=O)Nc2ccncc2)CC1; result = 101%
SMILES = NC(=O)c1cccc(-c2cc(Nc3ccc(OC(F)(F)F)cc3)ncn2)c1; result = 89.5%
SMILES = COc1cc2c(Nc3ccc(Br)cc3F)ncnc2cc1OCC1CCN(C)CC1; result = 104%
SMILES = O=C(c1ccccc1)c1ccc(N2CCOCC2)cc1O; result = 89%

Set 3 — target: CRIPT, C-terminal peptide; technique: DHFR complementation, deep sequencing; matrix: yeast; reference: wild type; reading: higher = weaker binding; endpoint: binding free energy change
Notes: single substitutions, model-inferred values
Starting sequence: ERBIN, PDZ domain 1 (human); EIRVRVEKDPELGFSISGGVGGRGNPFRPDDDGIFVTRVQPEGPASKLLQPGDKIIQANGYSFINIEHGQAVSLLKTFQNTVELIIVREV; partner TKNYKQTSV
Substitution = R38A; result = 0.0575 kcal/mol
Substitution = R5T; result = 0.0605 kcal/mol
Substitution = R3E; result = 0.0548 kcal/mol
Substitution = K8N; result = 1.08 kcal/mol
Substitution = I56Q; result = 0.137 kcal/mol
Substitution = K47L; result = 0.112 kcal/mol
Substitution = V20Y; result = -0.104 kcal/mol
Substitution = Q40G; result = 0.366 kcal/mol

Single results of other studies
Structure (SMILES) = Cc1c(NC(=O)c2cc(C(N)=O)nc3cc(F)ccc23)c(C(F)(F)F)nn1Cc1ccc(C#N)cc1; target = Serine/threonine-protein kinase PLK1 (PLK1, Homo sapiens, UniProt P53350); effect on = cell-free assay; technique = competition with immobilised ligand; concentration = 1 µM; endpoint = remaining binding; result = 88%

Some of these lines once more (set 2):
SMILES = Clc1ccc(Nc2nnc(Cc3ccncc3)c3ccccc23)cc1; result = 98.7%
SMILES = FC(F)(F)c1ccc(/C=C/c2nc(COc3ccc(CCCCn4ccnn4)cc3)co2)cc1; result = 101%
